Assay results gathered from unrelated publications.
Lines come from different studies, so protocols differ. “And” joins repeats or separate records; there may be more than shown. ± marks the error that the study gave.

COc1cc2c3c(n(CCCNCCO)c(=O)c2cc1OC)-c1cc2c(cc1C3=O)OCO2 — mean survival time (GL261-Luc, mouse orthotopic glioblastoma; intravenous, 20 mg/kg): 22 days
CC(C)C[C@H](NC(=O)[C@H](CCC1CCCCC1)NC(=O)[C@@H]1CCCN1C(=O)c1ccc(F)cc1)C(=O)NC(C)(C)C(=O)N[C@@H](CC(C)C)C(=O)N[C@@H](CC(C)C)C(=O)NC(C)(C)C(=O)NC(C)(C)C(=O)NCCC(=O)NCCN(C)CC(F)F — calcein leakage (small unilamellar vesicles; concentration not given): 4.45%
C[C@]12CC[C@H](O)C[C@H]1CC[C@@H]1[C@@H]2CC[C@]2(C)[C@@H](c3ccc(=O)oc3)CC[C@]12O — tumour volume (female nude mouse LCC2 xenograft; 0.5 mg/kg, day 7, tamoxifen-resistant): 43.7 mm3 and 43.5 mm3 and 25.9 mm3 and 68.4 mm3 and 42.1 mm3 and 59.2 mm3 and 48.6 mm3
C[C@H]1O[C@@H](O[C@H]2CC[C@@]3(C)[C@@H](CC[C@]4(C)[C@@H]3C=C[C@]35OC[C@@]6(CCC(C)(C)C[C@H]63)[C@@H](O)C[C@]54C)[C@]2(C)CO)[C@H](O)[C@@H](O[C@@H]2O[C@H](CO)[C@@H](O)[C@H](O)[C@H]2O)[C@H]1O — AST activity (Mus musculus, pair-fed, AAV8-TBG-SIRT1 shRNA hepatic SIRT1 knockdown, plasma; oral, high dose, 5 h): 63.3 U/L and 47.6 U/L and 51.7 U/L and 51.9 U/L and 39.4 U/L and 34 U/L
Cc1c(C(=O)O)ccc2c3n(nc12)[C@@H]1[C@H](C3)N(CC2CC2)[C@@]2(C(=O)Nc3cc(Cl)ccc32)[C@H]1c1cccc(Cl)c1F — median survival (mice, orthotopic PDX, MDM2-amplified; weekly, 2 mg/kg, for 12 weeks): 50 days
C=CC(=O)N[C@H]1C=C(C)c2c(-c3cnc4ccccc4c3)c3c(N)ncnc3n2C1 — tumour growth inhibition (NCI-H2073 parental xenograft (EGFR wild-type), BALB/c nude mice; 50 mg/kg once daily, 21 days): 69.2%
C[C@]1(CO)Cc2ncn(-c3ccc(C#N)c(Cl)c3)c2C(=O)O1 — urinary excretion (aldosterone synthesis, inhibitor, measured: cortisol; healthy Japanese adults, urine; 40 mg, 0-24 h after first dose, multiple rising dose): 71.7 mmol
CCCCC/C=C\C/C=C\C/C=C\C/C=C\CCCC(=O)NCCO — duration of action (mechanical hypersensitivity, electronic von Frey; mouse, CFA inflammatory pain; i.p., 20 mg/kg): 1 h
CCCCC1(CCCC)CN(c2ccccc2)c2cc(SC)c(OCC(=O)N[C@@H](C(=O)NCC(=O)O)c3ccccc3)cc2S(=O)(=O)C1 — serum LDL-C (measured: LDL cholesterol; human, serum; 5 mg once daily, day 8): 97.2 mg/dL
Cc1cccc(C)c1NC(=O)C1CCCCN1 (stereo not shown) — sensory block duration (Sprague-Dawley rat, male; intrathecal, 30 µL, 30 mM): 24.8 ± 8.7 min
Cc1cn(-c2cc(NC(=O)c3ccc(C)c(Nc4nccc(-c5cccnc5)n4)c3)cc(C(F)(F)F)c2)cn1 — change in mean NPI score (human patients; dose not given, 12 months from baseline, caregiver distress, within group; direction not given): 2
CN1CCN(S(=O)(=O)c2cc([N+](=O)[O-])ccc2N(CCOS(C)(=O)=O)CCOS(C)(=O)=O)CC1 — EFS ratio (T/C) (NSG mice, sample BC PDX; intraperitoneal, 25 mg/kg weekly x3; reference: treated over vehicle): 5.5
CC[C@H](C)[C@H](NC(=O)[C@H](CCC(=O)O)NC(=O)[C@H](CCCNC(=N)N)NC(=O)[C@H](CCCNC(=N)N)NC(=O)[C@H](CCCNC(=N)N)NC(=O)[C@H](CCC(N)=O)NC(=O)[C@H](CCCNC(=N)N)NC(=O)[C@H](CCCNC(=N)N)NC(=O)[C@H](CCCCN)NC(=O)[C@H](CCCCN)NC(=O)[C@H](CCCNC(=N)N)NC(=O)CNC(=O)[C@H](Cc1ccc(O)cc1)NC(C)=O)C(=O)N[C@@H](CC(=O)O)C(=O)N[C@@H](Cc1c[nH]cn1)C(=O)N[C@@H](CC(=O)O)C(N)=O — novel object exploration time (novel object recognition; db/db mouse; intravenous, dose not given, weekly): increased
Nc1ncnc2c1ncn2[C@@H]1O[C@@H]2COP(=O)([S-])O[C@@H]3[C@H](O)[C@@H](COP([O-])(=S)O[C@H]2[C@H]1O)O[C@H]3n1cnc2c(N)ncnc21.[Na+].[Na+] (stereo partly shown) — complete response rate (C57BL/6J mouse B16-F10 melanoma; intratumoral, 1 mg/kg, three doses at 3-day intervals): 0%
O=C(O)/C=C/C(=O)O.Oc1cccc2[nH]cc(CCNCc3ccccc3)c12 — head twitch count (C57BL/6J mice; subcutaneous, 0.1 mg/kg): 7 ± 0.9
CC[C@H](C)[C@@H]1NC(=O)[C@@H]2CCCN2C(=O)[C@H](CC(C)C)NC(=O)[C@H](CC(C)C)NC(=O)CNC(=O)[C@@H](NC(=O)[C@@H](NC(=O)[C@H](CC(=O)O)NC(=O)CNC(=O)[C@@H](NC(=O)[C@H](C)NC(=O)CNC(=O)[C@H](CCCCN)NC(=O)[C@H](CC(C)C)NC(=O)[C@H](CC(C)C)NC(=O)[C@H](CCCCN)NC(=O)CNC(=O)[C@@H](NC(=O)[C@@H](N)CC(C)C)C(C)C)C(C)C)C(C)C)CSSC[C@@H](C(=O)O)NC1=O — log2 fold change (RNA-seq, measured: Gimap7; mouse, traumatic brain injury model, frontal cortex and hippocampus; dose not given; reference: TBI alone): -4.28
Cc1nc(Nc2ccc(CC(=O)O)cc2)nc(Nc2ccc(F)c(C(F)(F)F)c2)c1C — Oil Red O staining (mice, chronic ethanol plus binge, liver; intraperitoneal, 0.3 mg/kg daily, ethanol diet 4 weeks, dosed last two; reference: vehicle): decreased
N.N.[Cl][Pt][Cl] — tumour volume (KSN/Slc nude mice, SAS xenograft; dose not given, day 2): 47.7 mm3 and 127 mm3 and 39 mm3 and 51.7 mm3 and 135 mm3 and 143 mm3 and 84.7 mm3 and 217 mm3
c1ccc2c(c1)Nc1ccccc1S2 — tumour volume (CT26 tumour-bearing mice; intraperitoneal, 100 mg/kg equivalents daily, day 3): 411 mm³

Repeated from above:
CC[C@H](C)[C@H](NC(=O)[C@H](CCC(=O)O)NC(=O)[C@H](CCCNC(=N)N)NC(=O)[C@H](CCCNC(=N)N)NC(=O)[C@H](CCCNC(=N)N)NC(=O)[C@H](CCC(N)=O)NC(=O)[C@H](CCCNC(=N)N)NC(=O)[C@H](CCCNC(=N)N)NC(=O)[C@H](CCCCN)NC(=O)[C@H](CCCCN)NC(=O)[C@H](CCCNC(=N)N)NC(=O)CNC(=O)[C@H](Cc1ccc(O)cc1)NC(C)=O)C(=O)N[C@@H](CC(=O)O)C(=O)N[C@@H](Cc1c[nH]cn1)C(=O)N[C@@H](CC(=O)O)C(N)=O — novel object exploration time (novel object recognition; db/db mouse; intravenous, dose not given, weekly): increased
c1ccc2c(c1)Nc1ccccc1S2 — tumour volume (CT26 tumour-bearing mice; intraperitoneal, 100 mg/kg equivalents daily, day 3): 411 mm³
